# Published values from different studies.
# A part holds a random share of what one study measured. Positions count from the first letter of the parent shown.

# Study 1
# Target: CCNB1, cyclin fold, Cln2 fusion (human)
# Method: yeast growth competition, sequencing
# Medium: yeast
# Notes: strong parent motif
# Baseline: not given
# Reading: higher = stronger binding
# Starting sequence: PKMYT1 docking peptide (human); SFEPRNLLSLFED; partner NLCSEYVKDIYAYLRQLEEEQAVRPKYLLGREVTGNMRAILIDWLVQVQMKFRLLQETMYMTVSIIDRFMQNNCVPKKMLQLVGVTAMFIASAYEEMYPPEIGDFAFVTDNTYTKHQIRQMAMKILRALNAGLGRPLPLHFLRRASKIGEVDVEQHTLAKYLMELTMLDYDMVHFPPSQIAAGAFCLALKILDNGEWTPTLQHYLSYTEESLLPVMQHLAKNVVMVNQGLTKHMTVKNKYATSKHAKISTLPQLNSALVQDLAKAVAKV
Substitution,normalised enrichment score
L10R,0.233
E12D,1.16
L7S,-0.177
F2K,-0.0422
F11R,-0.624
E12I,0.352
F11N,-0.482
E12Q,0.414
N6V,0.114
R5F,0.244
E12C,1.03
F2N,-0.23
E12N,1.06
S1E,1.32
D13N,1.66
E12Y,0.521
S1D,2.34
L8N,0.842
F11W,0.574
P4I,0.39
P4C,0.566
N6K,0.761
D13W,0.244
L8V,-0.0315
L10Q,0.589

# Study 2
# Target: Sal-like protein 4, full length isoform A (SALL4, Homo sapiens, UniProt Q9UJQ4, residues 1-1053)
# UniProt Q9UJQ4, sequence (whole entry, looked up): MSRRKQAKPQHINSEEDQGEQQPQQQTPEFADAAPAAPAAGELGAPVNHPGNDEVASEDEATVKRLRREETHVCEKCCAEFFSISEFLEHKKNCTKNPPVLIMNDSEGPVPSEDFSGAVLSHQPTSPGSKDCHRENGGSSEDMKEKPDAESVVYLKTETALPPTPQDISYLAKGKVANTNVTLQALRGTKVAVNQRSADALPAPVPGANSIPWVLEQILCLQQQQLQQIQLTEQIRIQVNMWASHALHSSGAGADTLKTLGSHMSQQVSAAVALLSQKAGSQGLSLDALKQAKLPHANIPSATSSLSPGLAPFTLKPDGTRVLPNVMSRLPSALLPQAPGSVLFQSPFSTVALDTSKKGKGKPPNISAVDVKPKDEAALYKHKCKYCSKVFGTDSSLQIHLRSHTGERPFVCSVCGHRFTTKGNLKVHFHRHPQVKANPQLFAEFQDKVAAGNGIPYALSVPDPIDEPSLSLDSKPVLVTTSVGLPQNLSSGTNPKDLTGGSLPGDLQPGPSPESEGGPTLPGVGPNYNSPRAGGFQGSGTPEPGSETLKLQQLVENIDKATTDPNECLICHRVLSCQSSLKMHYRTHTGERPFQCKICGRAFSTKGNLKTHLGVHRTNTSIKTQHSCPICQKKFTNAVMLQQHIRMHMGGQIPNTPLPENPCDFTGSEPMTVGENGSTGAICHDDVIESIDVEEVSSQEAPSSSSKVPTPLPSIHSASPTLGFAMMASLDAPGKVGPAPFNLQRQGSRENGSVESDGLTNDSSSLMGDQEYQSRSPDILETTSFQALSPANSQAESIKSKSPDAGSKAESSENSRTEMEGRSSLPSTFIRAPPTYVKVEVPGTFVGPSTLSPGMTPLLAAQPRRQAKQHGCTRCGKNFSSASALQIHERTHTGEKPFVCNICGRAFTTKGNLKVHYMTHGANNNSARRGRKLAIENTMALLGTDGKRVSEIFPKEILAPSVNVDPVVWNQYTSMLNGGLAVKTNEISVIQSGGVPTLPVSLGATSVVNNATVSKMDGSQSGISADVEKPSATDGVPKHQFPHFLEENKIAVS
# Method: universal PBM
# Molecule type: double-stranded DNA, one strand shown
# Medium: in vitro
# Concentration: 600 nM
# Notes: 8-mer, flanks averaged, mean of replicates
# Reading: higher = stronger binding
Sequence,E-score
TACATCGA,0.0759
AACGCTCA,-0.136
CAATGATC,0.0992
ACTATTTG,0.258
CGCCTATA,0.0138
CCTTTGGA,-0.205
GGGTTAAA,-0.0691
AACACATT,0.272
AGGGACGG,-0.315
ACCCTAAT,0.0722
CTCCTTAC,0.0254
CGACATAG,-0.0387
AACCTTGC,-0.11
AAGAACCC,-0.251
GGCAAGGA,-0.0332
CCAAAAAA,0.305
GAAGCCTA,-0.0626
CGGCGACC,-0.288
GTTTCTCA,-0.00732
CGTTTTTA,0.166

# Study 3
# Target: Phosphate system positive regulatory protein PHO4, full length, GST-tagged (PHO4, Saccharomyces cerevisiae, UniProt P07270, residues 1-312)
# Method: competition protein-binding microarray
# Molecule type: double-stranded DNA, one strand shown
# Medium: in vitro
# Concentration: 2 µM
# Notes: whole 60-bp probe, lowest competitor level
# With: Cbf1 competitor, 0.05 µM
# Reading: higher = stronger binding
# Shared flanks, not repeated: … GTCTTGATTCGCTTGACGCTGCTG
# Target sequence (chain): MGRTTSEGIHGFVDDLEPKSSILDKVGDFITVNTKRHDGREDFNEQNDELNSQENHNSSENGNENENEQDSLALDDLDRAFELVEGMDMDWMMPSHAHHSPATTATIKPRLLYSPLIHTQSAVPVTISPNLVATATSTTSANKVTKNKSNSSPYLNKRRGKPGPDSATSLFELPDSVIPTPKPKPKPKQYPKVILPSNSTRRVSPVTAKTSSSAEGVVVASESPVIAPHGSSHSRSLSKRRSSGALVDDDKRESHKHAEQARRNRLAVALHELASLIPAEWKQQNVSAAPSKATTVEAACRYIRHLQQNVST
Sequence,fluorescence intensity
AATAAAGAGAAAAACCATGTGCGGTAGCAGCCTGCC,10100 a.u.
CGGGGTTAAGTTTGTTCCGTGGGTGGCTTGCAGCAG,5530 a.u.
GTCTTCTGCCCCGGTCATATGAGTGGTATTCTTCTA,4710 a.u.
CTAACGAAGGTTTTTCACGTGGCGTACAAGCCAAGT,13200 a.u.
GAGAGCCTTGGTTGTCATGCCCTGAGGACCCAATGT,3950 a.u.
AACATAAGACTAGCTCGCGTGGCCGAATGGCAACGC,7220 a.u.
ACCAATCACTTTTTCATTTTTTTTCAAAAGCTCATC,3650 a.u.
TTAAAGTTTCTCCATCACGTGAAGCATTACCATTTT,12400 a.u.
CAGCAAGTCCTTCCTCACCTGATCCTTCTCATCGTC,2830 a.u.
CGGGGTTAAGTTTGACCAGTGGGTGGCTTGCAGCAG,4300 a.u.
TGAAGTGCCTGGCATCAGGTGAAACGGACCCCAAAG,3250 a.u.
CATACCCAACCTTGACAGGTGGGTGAAGATATTTGT,5710 a.u.
ATTCTTGAGAACATCCGCGTGAACCAGAGCAAACAG,6700 a.u.
CGCTACCAACTGCGCCATGTGCCCAGAATTTCTGTA,12900 a.u.
CGTCCTAGCGATTGAATGGTGGGTGCCATGAGGAAG,6360 a.u.
TGTGCTTGATAGCTTACCGTGCAAAAAATAATGGGT,4950 a.u.

# Study 4
# Target: ABI1, truncated, D143A, DHFR fusion (Arabidopsis thaliana)
# Method: DHFR PCA, deep sequencing
# Medium: yeast
# Notes: methotrexate growth selection, single substitutions
# With: (+)-ABA 4.8 µM
# Baseline: wild-type fitted maximum
# Reading: higher = stronger binding
# Starting sequence: PYL1, truncated, DHFR fusion (Arabidopsis thaliana); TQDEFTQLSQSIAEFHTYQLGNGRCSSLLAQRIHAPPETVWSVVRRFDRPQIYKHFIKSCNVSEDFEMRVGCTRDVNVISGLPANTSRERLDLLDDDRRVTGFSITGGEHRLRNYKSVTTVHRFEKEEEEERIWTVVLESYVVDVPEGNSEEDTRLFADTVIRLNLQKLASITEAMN
Substitution,relative binding score [%]
S150K,13.5
W41N,-11
I52E,65
E152T,55.8
D95C,31.4
R123G,86.7
E139F,-8.07
W41I,-16.3
V62K,1.59
Q31G,-2.41
D95Q,3.72
D95T,-13.5
Q167I,47.3
N114D,24.7
V161F,48.7
P146Q,6.23
G23N,69.7
F157L,42.1

# Study 5
# Target: MAFK, bZIP domain (human)
# Method: DHFR protein complementation
# Medium: yeast
# Notes: single substitutions, most at no-binding floor
# Baseline: wild-type JUN-FOS pair
# Reading: higher = stronger binding
# Starting sequence: JUN, bZIP domain (human); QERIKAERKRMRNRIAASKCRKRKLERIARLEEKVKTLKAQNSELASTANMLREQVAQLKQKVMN; partner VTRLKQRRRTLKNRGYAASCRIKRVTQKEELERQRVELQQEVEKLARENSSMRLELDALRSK
Substitution,binding fitness
L31G,-1.49 natural log
Q55G,-1.49 natural log
E44F,-1.46 natural log
E33Q,-1.51 natural log
I28H,-1.48 natural log
E33R,-1.46 natural log
Q55R,-1.53 natural log
R30I,-1.17 natural log
A46D,-1.45 natural log
V35E,-1.55 natural log
E33S,-1.54 natural log
L31W,-1.5 natural log
A46K,-1.38 natural log
A40V,-1.36 natural log
S43L,-1.37 natural log
T37N,-1.49 natural log
S43G,-1.42 natural log
S43Y,-1.39 natural log
A57H,-1.5 natural log
E54R,-1.46 natural log

# A few entries again (study 3):
Sequence,fluorescence intensity
AATAAAGAGAAAAACCATGTGCGGTAGCAGCCTGCC,10100 a.u.
CGGGGTTAAGTTTGTTCCGTGGGTGGCTTGCAGCAG,5530 a.u.
GTCTTCTGCCCCGGTCATATGAGTGGTATTCTTCTA,4710 a.u.
CTAACGAAGGTTTTTCACGTGGCGTACAAGCCAAGT,13200 a.u.
GAGAGCCTTGGTTGTCATGCCCTGAGGACCCAATGT,3950 a.u.
AACATAAGACTAGCTCGCGTGGCCGAATGGCAACGC,7220 a.u.
ACCAATCACTTTTTCATTTTTTTTCAAAAGCTCATC,3650 a.u.
TTAAAGTTTCTCCATCACGTGAAGCATTACCATTTT,12400 a.u.
CAGCAAGTCCTTCCTCACCTGATCCTTCTCATCGTC,2830 a.u.
CGGGGTTAAGTTTGACCAGTGGGTGGCTTGCAGCAG,4300 a.u.
TGAAGTGCCTGGCATCAGGTGAAACGGACCCCAAAG,3250 a.u.
CATACCCAACCTTGACAGGTGGGTGAAGATATTTGT,5710 a.u.
ATTCTTGAGAACATCCGCGTGAACCAGAGCAAACAG,6700 a.u.
CGCTACCAACTGCGCCATGTGCCCAGAATTTCTGTA,12900 a.u.
CGTCCTAGCGATTGAATGGTGGGTGCCATGAGGAAG,6360 a.u.
